Published values collected from several papers.
Each line is one published result; not all experiments were run side by side.
Spike glycoprotein: Spike glycoprotein (Severe acute respiratory syndrome coronavirus 2, UniProt P0DTC2)

SMILES | tested on | test | test system | setting | endpoint | value
COc1ccc(C[C@@H]2c3cc(Oc4cc(C[C@@H]5c6cc(O)c(OC)cc6CCN5C)ccc4O)c(OC)cc3CCN2C)cc1 | Spike glycoprotein | binding |  |  | Kd | 271 µM
Nc1cc(N2CCC(CO)(CCCc3ccccc3)CC2)ncn1 | Lassa mammarenavirus | viral replication | Huh-7 | 10 µM, 72 h | remaining activity | 55%
CC1CCN(CCCNC(=O)c2cc(Sc3ccc(F)cc3)nc3ccccc23)CC1 | SARS-CoV-2 | cytopathic effect, cell-based CPE | USA_WA1/2020 | round 2, 5-point dilution | maximal response | 92.8%
CCc1c(C(=O)C(N)=O)c2c(OCC(=O)O)cccc2n1Cc1ccccc1 | Daboia russelii |  | mouse | intravenous, 120 µg/mouse, 24 h, drug mixture, together with: AP venom 2.5 x LD50 preincubated | survival | 0%
Cn1cnc(Cn2c(=O)[nH]/c(=N\c3cc4cn(C)nc4cc3Cl)n(Cc3cc(F)c(F)cc3F)c2=O)n1 |  |  | human, normal renal function | oral, 375 mg, treatment-related decreased GFR, Moderate severity | patients with adverse event | 0%
CCCCN(CCCC)CCCNC(=O)c1cc(-c2ccc(Cl)s2)nc2ccccc12 | SARS-CoV-2 | cytopathic effect | USA_WA1/2020 | retest, 8-point, duplicates | maximum response | 75.8%
CCCCN(CCCC)CCCOc1ccc(C(=O)c2c(CC)cc3ccccn23)cc1 | SARS-CoV-2 | viral replication, GFP plate reader screen |  | cell-based | EC50 | > 100 µM
C[C@H]1CC[C@@]2(OC1)O[C@H]1C[C@H]3[C@@H]4CC[C@@H]5C[C@@H](O[C@@H]6O[C@H](CO)[C@H](O)[C@H](O)[C@H]6O[C@@H]6O[C@H](CO)[C@@H](O)[C@H](O)[C@H]6O)CC[C@]5(C)[C@H]4CC[C@]3(C)[C@H]1[C@@H]2C | Spike glycoprotein | binding, biolayer interferometry |  |  | Kd | 13.4 µM
CC[C@H](C)[C@H](NC(=O)[C@H](CC(C)C)NC(=O)[C@H](Cc1c[nH]c2ccccc12)NC(=O)[C@H](CCC(N)=O)NC(=O)[C@@H](NC(=O)[C@H](Cc1ccccc1)NC(=O)[C@H](C)NC(=O)[C@H](CCCCNC(=O)COCCOCCNC(=O)COCCOCCNC(=O)CC[C@H](NC(=O)CCCCCCCCCCCCCCCCCCC(=O)O)C(=O)O)NC(=O)[C@H](CCC(N)=O)NC(=O)[C@H](C)NC(=O)[C@@H](NC(=O)[C@H](CCCCN)NC(=O)[C@H](CC(=O)O)NC(=O)[C@H](CC(C)C)NC(=O)C(C)(C)NC(=O)[C@@H](NC(=O)[C@H](CO)NC(=O)[C@H](Cc1ccc(O)cc1)NC(=O)[C@H](CC(=O)O)NC(=O)[C@H](CO)NC(=O)[C@@H](NC(=O)[C@H](Cc1ccccc1)NC(=O)[C@@H](NC(=O)CNC(=O)[C@H](CCC(=O)O)NC(=O)C(C)(C)NC(=O)[C@@H](N)Cc1ccc(O)cc1)[C@@H](C)O)[C@@H](C)O)[C@@H](C)CC)[C@@H](C)CC)C(C)C)C(=O)N[C@@H](C)C(=O)NCC(=O)NCC(=O)N1CCC[C@H]1C(=O)N[C@@H](CO)C(=O)N[C@@H](CO)C(=O)NCC(=O)N[C@@H](C)C(=O)N1CCC[C@H]1C(=O)N1CCC[C@H]1C(=O)N1CCC[C@H]1C(=O)N[C@@H](CO)C(N)=O |  | measured: anti-drug antibodies | patients with type 2 diabetes | 5 mg, postbaseline, proof of concept | subjects with treatment-emergent ADA | 0%
Clc1ccc(CN2CCN(Cc3c[nH]c(CC4CCCC4)n3)CC2)cc1 | Lassa mammarenavirus | viral replication | Huh-7 | 10 µM, 72 h | remaining activity | 31%
Nc1ncnc2c([C@@H]3N[C@H](CO)[C@@H](O)[C@H]3O)c[nH]c12 | Zaire ebolavirus | viral replication | HeLa, Kikwit | 100 µM | inhibition | 99.9%
CSc1ccc(C2c3[nH]c4ccccc4c3CCN2C(=O)CCc2cccs2)cc1 (stereo not shown) | Lassa mammarenavirus | viral replication | Huh-7 | 10 µM, 72 h | remaining activity | 41%
Cc1ccc(-c2cccc(CN3CCCC(NC(=O)c4c(C)noc4C)C3)c2)cc1Cl (stereo not shown) | SARS-CoV-2 | cytopathic effect | USA_WA1/2020 | round 1, 5-point | maximum response | 92.6%
